Experimental data collected from several papers.
A part holds a random share of what one study measured. Changes are numbered by the printed parent chain.

Block 1
Target: Sox, HMG box (Pigoraptor chileana)
Technique: Spec-seq
Molecule type: double-stranded DNA, one strand shown
Sample: in vitro
Tested at: not given
Setting: whole probe, mean of replicates
Reference: not given
Direction: lower = stronger binding
Endpoint: relative binding energy
Constant ends, left off below: GAGTCGTCTCGTCAGCAC … CCGTAGAGCACTCAGGTC
Construct (chain): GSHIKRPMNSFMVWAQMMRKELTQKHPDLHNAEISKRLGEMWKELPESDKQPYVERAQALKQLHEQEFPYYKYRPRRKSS
AAGCGTT: -1.11 ln ratio
CCTAGTT: 0.0117 ln ratio
GAGGGTT: 1.38 ln ratio
CATACAC: -0.0317 ln ratio
TCCTGTT: -0.579 ln ratio
AGTCGTT: -0.748 ln ratio
CGCCGTT: 1.02 ln ratio
GTTTGTT: -2.09 ln ratio

Block 2
Target: Probable WRKY transcription factor 33, C-terminal DNA-binding domain (WRKY33, Arabidopsis thaliana, UniProt Q8S8P5, residues 346-449)
Technique: DNA-protein interaction ELISA
Molecule type: double-stranded DNA, one strand shown
Sample: in vitro, bacterial lysate
Tested at: not given
Setting: whole dsDNA probe, crude lysate protein
Reference: highest signal in screen
Direction: higher = stronger binding
Endpoint: relative absorbance
Construct (chain): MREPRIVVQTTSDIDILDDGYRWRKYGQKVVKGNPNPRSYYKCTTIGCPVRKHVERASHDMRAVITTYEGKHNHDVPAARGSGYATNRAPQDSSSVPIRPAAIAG
AAAAAACCAGCCTCAGTCCTGAACAAAAAA: 38.5 % of maximum
AAAAAACCACCCAGTCTGTTTCTACTAAAA: 42.9 % of maximum
AAAAAACCGAGTGTTGCCAGTTGCAGAAAA: 35.1 % of maximum
AAAAAACTGGCGACTGCCAGTGGTAGAAAA: 56.8 % of maximum
AAAAAAGTCTCACCTTTAGTCTTAATAAAA: 44.3 % of maximum
AAAAAATCTTACCCCTCCGCTTCTATAAAA: 43.2 % of maximum
AAAAAACGGTCGCGATCGTTAATGATAAAA: 86.9 % of maximum
AAAAAATTCTTTTTTCTTCAAGGTCTAAAA: 30.3 % of maximum

Block 3
Target: RNA binding protein fox-1 homolog 2, RRM domain, GST-SBP tag (RBFOX2, Homo sapiens, UniProt O43251-10, residues 100-194)
Technique: RNA Bind-n-Seq
Molecule type: RNA
Sample: in vitro
Tested at: 365 nM
Setting: natural RNA segment, single round, ends assumed
Reference: no-protein control
Direction: higher = stronger binding
Endpoint: RBNS enrichment (R)
Constant ends, left off below: GGGAGUUCUACAGUCCGACGAUC … UGGAAUUCUCGGGUGCCAA
Construct (chain): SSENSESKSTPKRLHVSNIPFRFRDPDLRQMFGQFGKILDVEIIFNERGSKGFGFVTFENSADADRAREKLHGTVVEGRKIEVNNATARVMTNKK
AAUCUUUACAACAUCCAUCGUCACAAAAGAGUGUUAUACAUUUAAUCCACAGGGCAUAGUUUUCUUUAUACCUUCUGUUAAUCAUCUUUCCUUAAUACUUUCUUAUCUGU: 0.284
ACAGGUGUACUCUGCCAUGUGUAGCUCUUAAAACGGCCCAUGGUACCUACUAAGCAGAGCAAGGCCUGGGUAUCAAACAGUUCUGUGUUAACAGUUCCUAAAUUCUAAGG: 0.39
GCAAAAAGCAAGCUUUAGCUUGUCUUAUAGGAUGCUUAGUUUGCCACUACACUUCAGACCAAUGGGACAGUCAUAGAUGGUGUGACAGUGUUUAAACGCAACAAAAGGCU: 0.473
AAAUUACUUUCUCAUUCUUUUAGUGUAUUCAACAUUGUCUGCCUCUUCCUGCAGUUGAUGUAAUUGCUUUGUUUGCAAUAGCACAAGCUGCAUUAUUCCAGUCAGGACUG: 0.492
CAGUAGAGGUCAGAGCUGGUUACCUGCCUUAGUUACAAGUGUCGGUUAUGUUCUGGGUCUUUGUAAUCGCUGAUCUCUGUAACAGAGCCUCUGUUUAUUUUUGCUUGUUG: 1.05
UAGAAAAAAGAAAUGUUAGUAUCUCAAUUACACCAACUGUGCAAAUGAACUUUGAUAAAAUAGAAAUAAUCUACAUUGGCCUUUGUGAAAUCUGGGGAAGAGCUUUAGGA: 0.547
GAAGAAUAGUAGGAAAUCCAAUGAAAUGGCUGUUUCCACCAAGAAUUCUUAGCACUGGUGUAAAUAUCAUGGUGCCUACUCGAAAGAAAUGUAGAUGCUAUGCAUUUUGA: 0.41
UUGCUCUGAAUUUGUAAAUAAGUCUUCCCCAUUCCUCAUACUCGAGCCUCUCCUCUCUGGUUGCCUCCUGCCACCAGCAUCCAUGGCUCAUUUGACACCUUUUUAAAUAU: 0.718

Other studies, line by line
Parent: viral docking peptide; KGVKRKLFAEDSS; partner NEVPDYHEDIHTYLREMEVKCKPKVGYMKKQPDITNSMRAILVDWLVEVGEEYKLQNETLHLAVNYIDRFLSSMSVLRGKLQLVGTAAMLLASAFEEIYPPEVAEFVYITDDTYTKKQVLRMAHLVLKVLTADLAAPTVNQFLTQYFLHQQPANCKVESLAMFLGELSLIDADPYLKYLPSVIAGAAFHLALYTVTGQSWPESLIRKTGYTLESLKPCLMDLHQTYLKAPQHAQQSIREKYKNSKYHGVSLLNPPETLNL
F8V  normalised enrichment score (CCNA2, cyclin fold, Cln2 fusion (human); yeast growth competition, sequencing; yeast; strong parent motif; reference: not given, higher = stronger binding): 0.817

For quick reference, copied from above (block 2):
AAAAAACGGTCGCGATCGTTAATGATAAAA: 86.9 % of maximum
AAAAAATTCTTTTTTCTTCAAGGTCTAAAA: 30.3 % of maximum
